Results of several laboratories.
Compare with care: the assays were run in different laboratories. Several values in a cell are separate wells, animals, samples, runs or records. ± gives the spread as reported.

SMILES | test | system | setting | how to read | quantity | value
C[S+](C)([O-])[Pt-2]([Cl])([Cl])[N+](=Cc1ccc[nH]1)Cc1ccccc1 | shake-flask | n-octanol/water | – | – | log P | 1.307 ± 0.0082
COCCOCCOCCOc1ccc(/C=C/C2=[N+]3C(=C(c4cc(OC)cc(OC)c4)c4c(C)c(I)c(/C=C/c5ccc(OCCOCCOCCOC)cc5)n4[B-]3(F)F)C(C)=C2I)cc1 | – | DMSO | – | – | log molar absorptivity | 4.79 M⁻¹ cm⁻¹
Oc1ccc2nc1CNCCNCCNC2 | pH-potentiometric titration | – | protonation constant, I 0.15 M NaCl, 298 K | – | log K2 | 9.46
O=C(O)CN(CCNC(=O)c1cccc(C(=O)NCCN(CC(=O)O)CC(=O)O)n1)CC(=O)O | potentiometric titration | water, 0.1 M KNO3 | 25.0 °C, complex species LPb(OH), together with: Pb(NO3)2 | – | log β (Pb2+ complex stability) | 16.7
Cc1cc(-c2ccccc2)c2ccc3c(-c4ccccc4)cc(C)nc3c2n1.[Cl-].[Cl-].[Ru+2].c1ccc(-c2ccccn2)nc1.c1ccc(-c2ccccn2)nc1 | – | octanol/water | room temperature, chloride salt | – | log P | -1.57 ± 0.01
c1ccc(COc2cc3nc(c2)CNCCNCCNC3)cc1 | pH-potentiometric titration | – | protonation constant, I 0.15 M NaCl, 298 K | – | log K1 | 10.5
CCNC(=O)C1OC(n2cnc3c(NC(CC)CC)nc(NCCNC(=O)Nc4cc[n+](C)cc4)nc32)C(O)C1O (stereo not shown) | IAM chromatography | – | pH 7.4 | – | log kIAM | 2.42
Oc1cc2nc(c1)CNCc1cc(O)cc(n1)CNC2 | potentiometric titration | 0.15 M NaCl | 298 K, protonation constant | – | log K5 | 0.98
CCCCCCC(=O)C(=O)C(O)CO (stereo not shown) | – | – | – | – | log membrane partition coefficient | 2.23
CCOC(=O)c1[nH]c(C)c(/C=C/C2=[N+]3C(=C(c4cc(OC)cc(OC)c4)c4c(C)c(I)c(/C=C/c5c(C)[nH]c(C(=O)OCC)c5C)n4[B-]3(F)F)C(C)=C2I)c1C | – | THF | – | – | log molar absorptivity | 4.8 M⁻¹ cm⁻¹
C[O][Pt-2]([NH3+])([NH3+])([Cl])([Cl])[O]C(=O)CCC(=O)O | RP-HPLC, C18 column | methanol/aqueous formic acid | 25 °C, extrapolated to 100% water | – | log kw | 0.39 ± 0.01
CCNC(=O)C1OC(n2cnc3c(N)nc(NCCNC(=O)Nc4cc[n+](C)cc4)nc32)C(O)C1O (stereo not shown) | IAM chromatography | – | pH 7.4 | – | log kIAM | 0.66
COc1cc(OC)cc(C2=C3C(C)=C(I)C(/C=C/c4c[nH]c5ccc([N+](=O)[O-])cc45)=[N+]3[B-](F)(F)n3c(/C=C/c4c[nH]c5ccc([N+](=O)[O-])cc45)c(I)c(C)c32)c1 | – | DMSO | – | – | log molar absorptivity | 4.87 M⁻¹ cm⁻¹
COc1cc(/C=N/N2C(=O)c3ccccc3NC2c2ccc(O)c(OC)c2)ccc1O (stereo not shown) | RP-HPLC | – | – | – | log k | -0.55
COc1ccc(NC(=O)[C@H](CCCCN)NC(=O)c2cc(NC(=O)[C@H](CCCCN)NC(=O)c3cc(NC(=O)[C@H](CCCCN)NC(=O)c4cc(N)ccc4OC)ccc3OC)ccc2OC)cc1C(N)=O | UV-vis λmax shift | TBS | pH 7.4, monomer-hexamer, K in M^-5 | – | log association constant | 21.1
NC(=O)CN1CCNC(=O)c2cccc(n2)C(=O)NCCN(CC(N)=O)CCN(CC(N)=O)CC1 | potentiometric titration | – | 25.0 °C, 0.1 M KNO3 ionic strength | – | log β Pb(II) complex LPb(OH)2 | 19.3
COc1cc(-c2nc3ccccc3s2)cc(CN2CCN(CC(=O)OC(C)C)CCN(CC(=O)OC(C)C)CC2)c1O | – | octanol/water | 64Cu complex | – | log D | 0.91 ± 0.07
FC(F)(F)c1ccnc(-c2cc(C(F)(F)F)ccn2)c1.FC(F)(F)c1ccnc(-c2cc(C(F)(F)F)ccn2)c1.[Cl-].[Cl-].[Ru+2].c1cnc2c(c1)ccc1cccnc12 | shake-flask | 1-octanol/phosphate buffer | pH 7.4, chloride salt | – | log D octanol/water | negative
COc1cc(OC)cc(C2=C3C(C)=C(I)C(C)=[N+]3[B-](F)(F)n3c(/C=C/c4cccs4)c(I)c(C)c32)c1 | – | dichloromethane | – | – | log molar absorptivity | 4.08 M⁻¹ cm⁻¹
CCCCCCCC(=O)C(=O)C(O)CO (stereo not shown) | – | – | concentration not given | reference: isobutyl AI-2 | log air-water partition coefficient change | 1.63
CCNC(=O)C1OC(n2cnc3c(NCC(c4ccccc4)c4ccccc4)nc(NCCc4ccc(CCN)cc4)nc32)C(O)C1O (stereo not shown) | IAM chromatography | – | pH 7.4 | – | log kIAM | 3.35
CCOC(=O)c1[nH]c(C)c(/C=C/c2c(I)c(C)c3n2[B-](F)(F)[N+]2=C(C)C(I)=C(C)C2=C3c2cc(OC)cc(OC)c2)c1C | – | DMSO | – | – | log molar absorptivity | 4.82 M⁻¹ cm⁻¹

SMILES | test | system | setting | how to read | quantity | value
O=C(O)[C@@H]1C[C@@H](O)CN1C(=O)[C@@H]1CCCN1 | potentiometric titration | – | 25 °C, MA3 complex, together with: Fe(III) | – | log beta | 29.5
COc1ccc(NC(=O)[C@H](CCCCN)NC(=O)c2cc(NC(=O)[C@H](CCCCN)NC(=O)c3cc(NC(=O)[C@H](CCCCN)NC(=O)c4cc(NC(=O)[C@@H](N)CCCCN)ccc4OC)ccc3OC)ccc2OC)cc1C(N)=O | UV-vis λmax shift | Tris 50 mM | pH 7.4, monomer-hexamer global fit, together with: NaCl 0 M | – | log association constant | < 15
COc1cc2oc(-c3ccc(C(F)(F)F)cc3F)cc(=O)c2c(O)c1O | spectrophotometric titration | methanol/water 80/20 w/w | 25.0 °C, ionic strength 0.1 M, 6-OH group | – | log protonation constant | 10.2
Br.Br.O=c1c(O)cccn1CCN1CCN(CCn2cccc(O)c2=O)CC1 | spectrophotometric titration | – | 25 °C, ligand protonation, ionic strength 0.10 M | – | log Ka2 | -6.1 ± 0.1
CCNC(=O)C1OC(n2cnc3c(NCC(c4ccccc4)c4ccccc4)nc(NCCNC(=O)Nc4cc[n+](C)cc4)nc32)C(O)C1O (stereo not shown) | IAM chromatography | – | pH 7.4 | – | log kIAM | 2.87
Oc1cccc(-c2cccc(O)n2)n1.[Cl-].[Cl-].[Ru+2].c1cnc2c(c1)c1c(c3cccnc32)OCCO1.c1cnc2c(c1)c1c(c3cccnc32)OCCO1 | – | octanol/buffer | basic form vs acidic form | reference: acidic form | log D increase | 1.1 log units and ~1.1 log units
Br.Br.Br.O=c1c(O)cccn1CCN1CCN(CCn2cccc(O)c2=O)CCN(CCn2cccc(O)c2=O)CC1 | spectrophotometric titration | – | 25 °C, ligand protonation, ionic strength 0.10 M | – | log Ka2 | -5.7 ± 0.1
COc1cc(OC)cc(C2=C3C(C)=C(I)C(C)=[N+]3[B-](F)(F)n3c(/C=C/c4c[nH]c5ccc([N+](=O)[O-])cc45)c(I)c(C)c32)c1 | – | THF | – | – | log molar absorptivity | 4.43 M⁻¹ cm⁻¹
COC(=O)c1ccccc1-c1c2ccc(=O)cc-2oc2cc(OCCCCC[P+](c3cc(C)cc(C)c3)(c3cc(C)cc(C)c3)c3cc(C)cc(C)c3)ccc12 | shake-flask, HPLC | 1-octanol/water | – | – | log P | 2.37 ± 0.01
COc1cc2oc(-c3ccc(C(F)(F)F)cc3)cc(=O)c2c(O)c1O | spectrophotometric titration | methanol/water 80/20 w/w | 25.0 °C, ionic strength 0.1 M, 6-OH group | – | log protonation constant | 10.1
O=C1c2ccccc2NC(c2ccc(Cl)c([N+](=O)[O-])c2)N1/N=C/c1ccc(Cl)c([N+](=O)[O-])c1 (stereo not shown) | RP-HPLC | – | – | – | log k | 1.14
COC(=O)CCC(=O)[O][Pt-2]1([OH])([Cl])([Cl])[NH2+]CC[N+]1(C)C | RP-HPLC, C18 column | methanol/aqueous formic acid | 25 °C, extrapolated to 100% water | – | log kw | 0.94 ± 0.01
COc1cc2oc(-c3ccc(OC(F)(F)F)cc3)cc(=O)c2c(O)c1O | spectrophotometric titration | methanol/water 80/20 w/w | 25.0 °C, ionic strength 0.1 M, 6-OH group | – | log protonation constant | 9.47
COc1cc(OC)cc(C2=C3C(C)=C(I)C(C)=[N+]3[B-](F)(F)n3c(/C=C/c4c[nH]c5ccccc45)c(I)c(C)c32)c1 | – | THF | – | – | log molar absorptivity | 4.76 M⁻¹ cm⁻¹
CCOC(=O)CN1CCN(CC(=O)OCC)CCN(Cc2cc(-c3nc4ccccc4s3)cc(OC)c2O)CC1 | – | octanol/water | 64Cu complex | – | log D | 0.9 ± 0.03
O=C(/C=C/c1ccc(O)c(O)c1)NCCCCCCCC[P+](c1ccccc1)(c1ccccc1)c1ccccc1 | derivative spectrophotometry | brain polar lipid membranes | 37 °C | – | log Kd | 3.64 ± 0.25
[Cl][Pd-2]([Cl])([N+](=Cc1ccc[nH]1)Cc1ccco1)[N+](=Cc1ccc[nH]1)Cc1ccco1 | shake-flask | n-octanol/water | – | – | log P | 1.382 ± 0.0032
O=c1c(O)cccn1CCCN1CCN(CCCn2cccc(O)c2=O)CC1 | spectrophotometric titration | – | 25 °C, Ka3, ionic strength 0.10 M | – | log proton dissociation constant | -7.94 ± 0.05
COCCOCCOCCOc1ccc(/C=C/c2c(I)c(C)c3n2[B-](F)(F)[N+]2=C(C)C(I)=C(C)C2=C3c2cc(OC)cc(OC)c2)cc1 | – | DMSO | – | – | log molar absorptivity | 4.17 M⁻¹ cm⁻¹
CCNC(=O)C1OC(n2cnc3c(NCC(c4ccccc4)c4ccccc4)nc(NCCc4ccc(CC[N+](C)(C)C)cc4)nc32)C(O)C1O (stereo not shown) | IAM chromatography | – | pH 7.4 | – | log kIAM | 2.74
C[O][Pt-2]1([Cl])([Cl])([O]C(=O)CCC(=O)OCCOC(=O)CCC(=O)[O][Pt-2]2([Cl])([Cl])([O]C)[NH2+]CC[N+]2(C)C)[NH2+]CC[N+]1(C)C | RP-HPLC, C18 column | methanol/aqueous formic acid | 25 °C, extrapolated to 100% water | – | log kw | 2.95 ± 0.01

Excerpt of the above:
SMILES | test | system | setting | how to read | quantity | value
CCOC(=O)CN1CCN(CC(=O)OCC)CCN(Cc2cc(-c3nc4ccccc4s3)cc(OC)c2O)CC1 | – | octanol/water | 64Cu complex | – | log D | 0.9 ± 0.03
O=C(/C=C/c1ccc(O)c(O)c1)NCCCCCCCC[P+](c1ccccc1)(c1ccccc1)c1ccccc1 | derivative spectrophotometry | brain polar lipid membranes | 37 °C | – | log Kd | 3.64 ± 0.25
[Cl][Pd-2]([Cl])([N+](=Cc1ccc[nH]1)Cc1ccco1)[N+](=Cc1ccc[nH]1)Cc1ccco1 | shake-flask | n-octanol/water | – | – | log P | 1.382 ± 0.0032
O=c1c(O)cccn1CCCN1CCN(CCCn2cccc(O)c2=O)CC1 | spectrophotometric titration | – | 25 °C, Ka3, ionic strength 0.10 M | – | log proton dissociation constant | -7.94 ± 0.05
COCCOCCOCCOc1ccc(/C=C/c2c(I)c(C)c3n2[B-](F)(F)[N+]2=C(C)C(I)=C(C)C2=C3c2cc(OC)cc(OC)c2)cc1 | – | DMSO | – | – | log molar absorptivity | 4.17 M⁻¹ cm⁻¹
